Published values collected from several papers.
A part holds a random share of what one study measured. Changes are numbered by the printed parent chain.

Series 1 — target: UBE2Z UBC core domain (UniProt Q9H832); method: yeast two-hybrid; sample: yeast; setting: mostly zero background; baseline: not given; reading: higher = stronger interaction
B1: TRIM72 RING domain (UniProt Q6ZMU5); chain APGLLHQELSCPLCLQLFDAPVTAECGHSFCRACLGRVAGEPAADGTVLCPCCQAPTRPQALST
B2: RNF170 RING domain (UniProt Q96K19); chain TRQQFYTDMYCPICLHQASFPVETNCGHLFCGACIIAYWRYGSWLGAISCPICRQTVTLLLTVF
B3: ARK2C RING domain (UniProt Q6ZSG1); chain EGEESDTDEKCTICLSMLEDGEDVRRLPCMHLFHQLCVDQWLAMSKKCPICRVDIETQLGAD
Construct (chain): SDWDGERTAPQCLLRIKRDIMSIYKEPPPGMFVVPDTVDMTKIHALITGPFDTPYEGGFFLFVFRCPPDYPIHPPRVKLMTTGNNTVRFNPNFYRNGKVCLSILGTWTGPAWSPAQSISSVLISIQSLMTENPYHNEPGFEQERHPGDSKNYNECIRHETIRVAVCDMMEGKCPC
Sequence | lacZ reporter activity
QLRRLQEERTCKVCMDKEVSIVFIPCGHLVVCKDCAPSLRKCPICRSTIKGTVRTF (BIRC3 RING domain (UniProt Q13489)) | 0
B1 (TRIM72 RING domain) | 0
B2 (RNF170 RING domain) | 0
VTLSLTLPITCHICLGKVRQPVICINNHVFCSICIDLWLKNNSQCPACRVPITPENPCK (OBI1 RING domain (UniProt Q5W0B1)) | 0
RLTMMWEEVTCPICLDPFVEPVSIECGHSFCQECISQVGKGGGSVCPVCRQRFLLKNLRP (TRIM21 RING domain (UniProt P19474)) | 0
B3 (ARK2C RING domain) | 0
QLRRLQEERTCKVCMDKEVSVVFIPCGHLVVCQECAPSLRKCPICRGIIKGTVRTF (BIRC2 RING domain (UniProt Q13490)) | 0
QHHELTSLFECPVCFDYVLPPILQCQAGHLVCNQCRQKLSCCPTCRGALTPSIRNL (SIAH2 RING domain (UniProt O43255)) | 0
FASPPDSNFVCSVCHGVLKRPARLPCSHIFCKKCILRWLARQKTCPCCRKEVKRKKVVH (RNF151 RING domain (UniProt Q2KHN1)) | 0
DAIPSLSECQCGICMEILVEPVTLPCNHTLCKPCFQSTVEKASLCCPFCRRRVSSWTRYH (RNF168 RING domain (UniProt Q8IYW5)) | 0
FPEHFVKSISCQICEHILADPVETNCKHVFCRVCILRCLKVMGSYCPSCRYPCFPTDLES (RAG1 RING domain (UniProt P15918)) | 0

Series 2 — target: CCND3, cyclin fold, Cln2 fusion (human); method: yeast growth competition, sequencing; sample: yeast; setting: weak parent motif; baseline: not given; reading: higher = stronger binding
Parent: CABLES2 docking peptide (human); ICAKRSLCAAFSV
Substitution | normalised enrichment score
S12A | 0.0526
K4A | -0.422
I1A | -0.135
R5A | -0.0447
F11A | 0.127

Series 3 — method: universal PBM; molecule type: double-stranded DNA, one strand shown; sample: in vitro; concentration: 600 nM; reading: higher = stronger binding
Target: Sal-like protein 4, full length isoform A (SALL4, Homo sapiens, UniProt Q9UJQ4, residues 1-1053)
Sequence of UniProt Q9UJQ4 (whole entry, looked up): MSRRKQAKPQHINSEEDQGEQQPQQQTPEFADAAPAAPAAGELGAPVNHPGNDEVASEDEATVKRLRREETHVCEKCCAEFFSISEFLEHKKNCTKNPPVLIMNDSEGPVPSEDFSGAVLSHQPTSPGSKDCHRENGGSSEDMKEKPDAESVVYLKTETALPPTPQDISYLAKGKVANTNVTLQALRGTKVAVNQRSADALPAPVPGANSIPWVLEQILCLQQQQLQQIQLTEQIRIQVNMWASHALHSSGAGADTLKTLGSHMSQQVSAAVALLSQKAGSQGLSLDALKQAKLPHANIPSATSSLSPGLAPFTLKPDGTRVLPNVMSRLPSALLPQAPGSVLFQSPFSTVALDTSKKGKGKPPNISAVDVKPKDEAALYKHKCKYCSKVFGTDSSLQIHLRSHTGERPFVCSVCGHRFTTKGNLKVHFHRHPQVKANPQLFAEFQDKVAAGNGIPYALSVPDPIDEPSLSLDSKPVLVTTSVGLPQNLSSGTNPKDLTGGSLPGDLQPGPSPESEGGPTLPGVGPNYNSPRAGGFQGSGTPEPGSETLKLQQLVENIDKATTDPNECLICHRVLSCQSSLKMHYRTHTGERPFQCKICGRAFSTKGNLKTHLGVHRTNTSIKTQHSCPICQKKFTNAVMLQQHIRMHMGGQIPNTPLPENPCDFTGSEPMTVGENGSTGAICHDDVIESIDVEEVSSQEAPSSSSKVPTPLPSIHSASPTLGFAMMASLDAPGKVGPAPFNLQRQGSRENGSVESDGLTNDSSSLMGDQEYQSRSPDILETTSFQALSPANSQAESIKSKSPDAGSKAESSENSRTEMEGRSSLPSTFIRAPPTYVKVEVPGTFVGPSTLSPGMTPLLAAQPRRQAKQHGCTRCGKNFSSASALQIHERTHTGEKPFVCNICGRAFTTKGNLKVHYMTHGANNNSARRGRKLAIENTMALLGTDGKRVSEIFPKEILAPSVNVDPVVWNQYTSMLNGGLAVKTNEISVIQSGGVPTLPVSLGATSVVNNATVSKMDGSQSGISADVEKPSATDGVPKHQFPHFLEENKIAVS
Setting: 8-mer, flanks averaged, mean of replicates
Strand | E-score
AAATGGCG | 0.0142
CGGTGGTA | -0.193
CAGCGCAA | -0.125
ACCTCATA | 0.119
CAGGGCCG | -0.29
ACTCCCGC | -0.0212
CTGCGAAA | 0.0129
ATGGCTCC | -0.164
GCTACAGC | -0.196
CACGTACG | -0.072
ACGGTCAA | -0.00728
CGTACGTA | 0.0711
AAGAAACC | -0.0764
ACCGCAAC | -0.0455
CTGCTGCA | -0.18
CATCAAGA | 0.138
ATCTCTAG | 0.0677
GCTGGTAA | 0.00841
AAACTATC | 0.136
ACCTTTAA | 0.169
CTTGTAGA | -0.139
GCTAACCC | -0.287

Series 4 — method: protein binding microarray; molecule type: double-stranded DNA, one strand shown; sample: in vitro; concentration: not given; baseline: not given; reading: higher = stronger binding
Target: Histone acetyltransferase KAT6A, both winged helices, GST fusion (KAT6A, Homo sapiens, UniProt Q92794, residues 1-181)
Setting: 8-mer, flanks averaged, mean of 2 arrays, mostly near background
Target sequence (chain): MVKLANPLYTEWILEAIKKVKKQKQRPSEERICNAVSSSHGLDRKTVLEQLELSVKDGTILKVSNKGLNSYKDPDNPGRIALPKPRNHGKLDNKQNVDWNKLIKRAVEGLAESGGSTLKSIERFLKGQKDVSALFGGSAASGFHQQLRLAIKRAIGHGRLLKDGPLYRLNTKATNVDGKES
Strand | E-score
ACTACGGG | 0.162
AATCCAAA | -0.0983
GAATCGCC | 0.119
CCCATGTC | -0.0944
GATGGCCA | -0.0207
CACAAGTG | -0.075
CAGCCCAG | -0.152
CGCCCACC | -0.141
AATCCTTC | -0.0706
AGCCATGG | -0.221
TAAGTGAA | -0.151
GCGCTATA | 0.297
CGTCCGCA | 0.223
ACCGAGGG | -0.0924
GTAGTCTA | -0.0695
AACTTGAT | -0.00954
GATTGGAA | -0.103
GAAGTGGC | -0.134
GATCGTCC | 0.122
GCGCCTAA | 0.223
CAAATTCC | -0.107
CAATCTCC | -0.0432
CCAAATAC | -0.246
AGAGTTAG | -0.171
GGATATTA | 0.0493

Series 5 — method: RNA Bind-n-Seq; molecule type: RNA; sample: in vitro; concentration: 365 nM; baseline: no-protein control; reading: higher = stronger binding
Target: RNA binding protein fox-1 homolog 2, RRM domain, GST-SBP tag (RBFOX2, Homo sapiens, UniProt O43251-10, residues 100-194)
Setting: natural RNA segment, single round, ends assumed
Constant ends, left off below: GGGAGUUCUACAGUCCGACGAUC … UGGAAUUCUCGGGUGCCAA
Construct (chain): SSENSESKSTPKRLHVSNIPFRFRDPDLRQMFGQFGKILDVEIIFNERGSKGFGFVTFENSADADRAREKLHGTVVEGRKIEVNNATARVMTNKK
Strand | RBNS enrichment (R)
GAGCCACGCCCAAGGCGAGACUUCCAGCCCCAACACCCACUUUGGAAGCCCUGUGGCCACAUGUAUGUCAGUAAGGGUUGUACAAAAUAAAUUCUAUUUAUCGCUAUUGU | 0.344
CCUACUGGCUCACAAAUGAGGACCAGUGAGCCAUGUCCUUGUUCCUUGUUUGAGACUGGGCUGCAGGCCCCAGGAAGACUUUCCUUCACCCACCAUCCCCCUAACCUCGG | 0.572
UGGCAGCAUAGGUUCUAAUUUUCUUUUGAAGAGAAAUUGUGGGAAGGGUAAACUUUUGAGAUUUUUUUUUUUAAAACAAUUUUAUGUUUGUGCACUUUGUGUUAAUCUCA | 0.886
GAGUAGAACAUGAACUAGUUAGAGCGAGAGAACCCUUGGUCCUGAAUAGUGGAGUUAUAGAGAAGGGCCAGUCCUAAGAUGGAAGGAGCCCUACAAUCUGACUCCUUCUA | 0.982
CCUUCUGGACCCCUCCACUCUGGCCGUACCCGAUGGUCUGAGUGGUUUUGCCACCUCCUCUCUCAGUAUCACUCCCUCCUCCCCAAACCCCAAUCUCCAGUGUCUGUAGC | 0.649
UUGCACAUCAUGGAGGGUUUAGUGCUUAUCUAAUUUGUGCCUCACUGGACUUGUCCAAUUAAUGAAGUUGAUUCAUAUUGCAUCAUAGUUUGCUUUGUUUAAGCAUCACA | 0.719
CCUCUUCUUAUAAACGCCCUUCUAAUAAACUUUUCACCGUAAAGCUCCUGAGACAGGAGCACAGUCUAUUCCCUGCUGCUGUCUCUGGGGAAAGGGAUUUACAAGGGGAC | 0.313
CAGACUGAGAGGCCAGUUGAUCUGCUCUGUUUUAUACCAGUAGCAAUAAAGAUUAUUUUUUGAUACAUCUGUGAGUCCUGUCUGGCAAGAACAUGUCAGAGAACCAGCAG | 0.349
UAGUAGGCAUUUAGCAAACAUUUAUUGACAAAAAAUAAAACAAAAACUGACAAAUGAAUGUGUAUAACUUUUUCAUGUCUUUUUUACUGUAAAUAACCACUUGACCGGUC | 0.385
UUCAUACCUCAAAUUGAUUCAUACCUCAGUUUAAUUCAGAGAGGUCAGUUAAGUGACGGAUUCUGUUGUGGUUUGAAUGCAGUACCAGUGUUCUCUUCGAGCAAAGUAGA | 0.326
GCGUGGCCCCAGGAGUUUUGUCCUCUGCAGUUUUUAAUGCAAGUUCACUGCCACUUUGACAAAAGCCCAAUUAGAAGCCAGUCUCUAGUUCCUUAAACAAAACAGACAGA | 0.542
UCAUAUCUGAGACAGCCCUCAGCUGAGGGCUUGUGGGACAGUGUCCAAGCCUCAGGCUGGGCUCAUUCAUAUAAUUGCAAUAAAUGGUACGUGUCCAUUUGGACAGCAGA | 0.323

Some of these lines once more (series 3):
Strand | E-score
ACTCCCGC | -0.0212
GCTAACCC | -0.287
ACCTTTAA | 0.169
ACCTCATA | 0.119
CTGCGAAA | 0.0129
AAACTATC | 0.136
CTGCTGCA | -0.18
CACGTACG | -0.072
